Experimental data of several laboratories.
A part holds a random share of what one study measured. Substitutions count along the parent as printed.

Study 1
Target: RING finger protein unkempt homolog, zinc fingers 1-6, GST-SBP tag (UNK, Homo sapiens, UniProt Q9C0B0, residues 30-357)
Sequence of UniProt Q9C0B0 (30-357, looked up): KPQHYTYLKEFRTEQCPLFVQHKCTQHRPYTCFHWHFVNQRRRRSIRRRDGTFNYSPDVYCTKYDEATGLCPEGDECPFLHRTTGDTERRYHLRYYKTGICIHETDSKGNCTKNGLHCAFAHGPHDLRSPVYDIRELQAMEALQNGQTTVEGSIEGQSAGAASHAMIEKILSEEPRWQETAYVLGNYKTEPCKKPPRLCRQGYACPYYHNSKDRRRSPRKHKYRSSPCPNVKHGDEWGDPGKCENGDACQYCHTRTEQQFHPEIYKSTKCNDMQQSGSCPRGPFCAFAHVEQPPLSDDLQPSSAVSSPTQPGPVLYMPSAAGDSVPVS
Method: RNA Bind-n-Seq
Molecule type: RNA
Matrix: in vitro
Concentration: not given
Notes: RNA with constant flanks, human-mouse chimeric sites, ends assumed
Relative to: input RNA pool
Reading: higher = stronger binding
Shared flanks, not repeated: GGGAGUUCUACAGUCCGACGAUC … CAACAGAGGAUUGAGCAUCA
Strand | bound/input enrichment
CUGGCACUGUAUCAGAUAUAUUAAUUUUUUAAUGUAGAUGUAAUUUUAAAAAUGAAUGGCUACUUUACGUGAUAGAUUAGGGUUUUACUAUAUAUGUGUACAUAUGUAUAUAUAUAUAUA | 13.7 ratio
UGGCGCCUGCGCUCCCCGUUUUUAAAUUUAAGUGUAUUUUUAUAAGACAUGUGUAUUUACAAUUGAGCUUUUGUUACAUAAUGCUGAAAUGCUACUGGAGAUUAUGAAAAAUGUUUCAAU | 0.409 ratio
CUGUGACCACAAGAUCCUACCUGAGUGGCAGCUGAAGUUGACUCCCUCCCCUUCCCUGAACCCCCCCCCACUGCCCCUUGAGUCCACAGUGUCGGCUGAGAUGUUGCCUCUGCACGGUUC | 0.962 ratio
UGUGCAUAUGAUGCUUGAGAUGGUUUUUGCAGAUGCAGAAAUCGCUGCAAGGUAAUCACAAUAGAUAAAAGUGGUAUUUUAAACCUUUGAAAUAAAUGGAUGUAACUGUACCUUGGUACA | 0.574 ratio
UAAAUUAGGGCUGCCGUUUUCUGUUUCGCCCUGAGCUGCGGAAAGCCAGAAGAUUUUAUCUAGCUUAUACAAGGCUGCUGGUGUUCCCUCUUUUUUUCCACGAGGGUUUUUUUUCCAGCA | 0.488 ratio
CAGCGCCGAGGCCGCGGUUUCCCCCUGGGCCUCCCCAGCAGCAGCCAUGGGCAUCAAAUUUUUAGAAGUUAUCAAACCUUUCUGUGCAGUUCUACCAGAAAUUCAGAAGCCUGAAAGGAA | 1.42 ratio
CCACCAGGAUCCCAGAAACAUGACCCUUGCUGCCUACAAAGAGAAGAUGAAGGAGCUCCCGCUGGUGUCUCUGUUCUGCUCCUGCUUCCUGGCCGAUCCCCUGAAUAAGUCGUCCUACAA | 0.254 ratio
ACACAAUAUGAGACCAACAGCUUGGACUUCAAAGUUGGGGCGGAUGGGACAGUCUUCGCCACCCGGGAGCUGCAGGUCCCCUCCGAGCAGGUGGCGUUCACGGUGACUGCAUGGGACAGC | 0.386 ratio
UUUGUUUUUAUGCUAAGCACACGUGCUGGUGGUCUGGGCAUCAAUCUUGCAACUGCUGAUGUAGUCAUUUUAUAUGACUCAGAUUGGAAUCCCCAAGUUGAUCUUCAGGCUAUGGACCGU | 0.149 ratio
UUCAAAGAAAAGGGCAGCUGUGUCAUUACUUGGGAGACUCUGGGGGAUAAGUGGAAGGUUCUUUUGUUUAAUUUUCCCCCAAAUGAAGCCAAAGUGUGUGUUGAAGAACUGAGAAAAAAU | 0.17 ratio
CUGGCCUGGCCCUCCCCAGGGGCCUCCUUUCGUAUAGUCACUGCUUCUGCUACGGAUACUUUCAGCUGCAACUCCCUACUGGGUGGGGCACCCAUUUCAGGCAGAAGUUGGUGCCCCCCU | 0.205 ratio

Study 2
Target: NFIL3, bZIP domain (human)
Method: DHFR protein complementation
Matrix: yeast
Notes: single substitutions, most at no-binding floor
Relative to: wild-type JUN-FOS pair
Reading: higher = stronger binding
Starting sequence: JUN, bZIP domain (human); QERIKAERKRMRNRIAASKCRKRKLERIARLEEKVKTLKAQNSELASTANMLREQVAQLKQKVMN; partner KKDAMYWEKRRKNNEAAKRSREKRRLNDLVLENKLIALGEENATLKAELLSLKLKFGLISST
Variant | binding fitness [natural log]
A29M | -1.32
N42C | -1.47
E44P | -1.53
R53W | -1.57
Q41D | -1.49
L31K | -1.52
E44Y | -1.53
R53T | -1.55
I28A | -1.42
L31M | -1.25
R30K | -1.43
T37S | -1.39
A49Q | -1.35
L31I | -1.33
Q55K | -1.57
E54Q | -1.57
Q41E | -1.55
Q41R | -1.53

Study 3
Target: CCNE1, cyclin fold, Cln2 fusion (human)
Method: yeast growth competition, sequencing
Matrix: yeast
Notes: weak parent motif
Relative to: not given
Reading: higher = stronger binding
Starting sequence: WEE2 docking peptide (human); KELRQKLNFSYCE
Variant | normalised enrichment score
KELRQKLNFSYAE [C12A] | -0.24
KELRQKLNFSYCA [E13A] | 0.433
KELAQKLNFSYCE [R4A] | -0.0877
KELRQKLAFSYCE [N8A] | 0.172
KALRQKLNFSYCE [E2A] | 0.0278
KEARQKLNFSYCE [L3A] | 0.0805
KELRQALNFSYCE [K6A] | -0.12

Study 4
Target: Prothrombin, mature alpha-thrombin (F2, Homo sapiens, UniProt P00734)
Method: aptamer microarray, sandwich
Molecule type: DNA with 2'F-ANA
Matrix: in vitro
Concentration: 200 nM
Notes: whole 15-mer aptamer, many near background
Added: Cy3 exosite-II aptamer, 400 nM
Reading: higher = stronger binding
Strand: GGTTGGTGTGGTTGG
Modification | mean fluorescence intensity [a.u.]
2'F-ANA at 2 3 10 11 13 15 | 350
2'F-ANA at 1 2 3 4 11 13 14 15 | 64.8
2'F-ANA at 2 4 6 7 8 9 10 11 13 | 67.3
2'F-ANA at 2 3 8 9 10 11 12 15 | 372
2'F-ANA at 3 5 6 8 9 11 15 | 98.5
2'F-ANA at 2 3 4 5 6 9 10 12 14 | 48.4
2'F-ANA at 2 6 8 11 12 | 568
2'F-ANA at 3 7 8 9 10 12 | 669
2'F-ANA at 1 3 5 6 8 11 12 13 14 15 | 49.1
2'F-ANA at 4 7 8 9 10 11 12 13 14 15 | 59.8
2'F-ANA at 5 6 10 11 12 14 | 44.8
2'F-ANA at 1 2 4 6 8 9 10 15 | 53.4
2'F-ANA at 3 4 5 8 11 13 14 15 | 48.7
2'F-ANA at 1 5 8 9 10 12 | 66.1
2'F-ANA at 2 3 5 8 9 12 13 14 | 203
2'F-ANA at 3 4 6 10 11 14 | 183
2'F-ANA at 1 5 8 11 15 | 55.5
2'F-ANA at 1 2 3 4 5 6 7 8 9 11 12 | 112
2'F-ANA at 2 3 4 6 8 9 10 13 14 15 | 152
2'F-ANA at 1 2 6 7 9 10 13 15 | 51
2'F-ANA at 1 4 5 6 9 11 13 14 15 | 44.8
2'F-ANA at 3 4 5 6 7 8 11 12 15 | 149
2'F-ANA at 2 8 9 11 14 | 128
2'F-ANA at 1 2 4 8 11 12 13 | 186
2'F-ANA at 1 5 6 10 12 13 14 | 41.4

Study 5
Target: Sal-like protein 4, full length isoform A (SALL4, Homo sapiens, UniProt Q9UJQ4, residues 1-1053)
Sequence of UniProt Q9UJQ4 (whole entry, looked up): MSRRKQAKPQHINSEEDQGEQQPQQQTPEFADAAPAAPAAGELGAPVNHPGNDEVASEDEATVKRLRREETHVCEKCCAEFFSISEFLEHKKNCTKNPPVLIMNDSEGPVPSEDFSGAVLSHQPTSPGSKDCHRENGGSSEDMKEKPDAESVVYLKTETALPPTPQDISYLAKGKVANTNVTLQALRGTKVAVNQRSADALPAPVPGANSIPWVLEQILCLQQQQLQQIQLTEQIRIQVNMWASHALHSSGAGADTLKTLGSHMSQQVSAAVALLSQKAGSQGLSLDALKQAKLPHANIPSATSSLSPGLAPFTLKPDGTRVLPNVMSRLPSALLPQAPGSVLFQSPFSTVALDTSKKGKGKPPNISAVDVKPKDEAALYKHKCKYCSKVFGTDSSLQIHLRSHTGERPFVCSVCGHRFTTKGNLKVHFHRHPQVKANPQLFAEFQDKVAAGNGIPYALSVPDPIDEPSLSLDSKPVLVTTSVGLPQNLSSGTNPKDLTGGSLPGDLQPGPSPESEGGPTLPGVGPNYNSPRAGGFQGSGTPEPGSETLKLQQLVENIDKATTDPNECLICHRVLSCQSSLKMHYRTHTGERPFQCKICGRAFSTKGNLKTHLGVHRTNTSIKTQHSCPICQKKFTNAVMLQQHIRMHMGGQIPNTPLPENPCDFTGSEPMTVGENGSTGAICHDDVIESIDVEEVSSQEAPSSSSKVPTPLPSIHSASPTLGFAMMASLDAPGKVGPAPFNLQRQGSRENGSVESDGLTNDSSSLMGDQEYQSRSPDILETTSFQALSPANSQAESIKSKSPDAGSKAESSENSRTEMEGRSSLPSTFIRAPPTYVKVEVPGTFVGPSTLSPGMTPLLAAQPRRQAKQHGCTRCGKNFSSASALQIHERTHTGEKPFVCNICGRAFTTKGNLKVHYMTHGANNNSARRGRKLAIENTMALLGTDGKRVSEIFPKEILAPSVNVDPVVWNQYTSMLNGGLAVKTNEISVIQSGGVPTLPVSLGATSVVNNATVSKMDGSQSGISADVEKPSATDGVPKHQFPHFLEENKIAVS
Method: universal PBM
Molecule type: double-stranded DNA, one strand shown
Matrix: in vitro
Concentration: 600 nM
Notes: 8-mer, flanks averaged, mean of replicates
Reading: higher = stronger binding
Strand | E-score
CCTAGGGC | -0.274
ATCTGCGG | 0.0257
ATCTCGAC | 0.0683
CATTGTTC | 0.0259
AAGATAAG | 0.153
ACAAGCCG | -0.188
GGACACTA | -0.103
CAGCTATA | 0.0786
CAGCCTTA | 0.00766
CCCAACGC | -0.261
AAAAATTT | 0.364
CGTGTTAC | -0.0551
AATGTAAC | 0.223
GCGAGACC | -0.232
ACGTAACG | -0.114
AATGTTCA | 0.192
AGTGCTCC | -0.224
AGGACTAA | 0.0532
CTCGGACA | -0.0761
CATCACAA | 0.142
CATGTGTA | 0.139
ATACCGTC | 0.0305
GTGTGCCA | -0.157

Study 6
Target: ABI1, truncated, D143A, DHFR fusion (Arabidopsis thaliana, UniProt P49597)
Method: DHFR PCA, dose-response
Matrix: yeast
Notes: Hill fit, mean, not affinity
Added: (+)-ABA, dose series
Reading: lower = more sensitive
Starting sequence: PYL1, truncated, DHFR fusion (Arabidopsis thaliana, UniProt Q8VZS8); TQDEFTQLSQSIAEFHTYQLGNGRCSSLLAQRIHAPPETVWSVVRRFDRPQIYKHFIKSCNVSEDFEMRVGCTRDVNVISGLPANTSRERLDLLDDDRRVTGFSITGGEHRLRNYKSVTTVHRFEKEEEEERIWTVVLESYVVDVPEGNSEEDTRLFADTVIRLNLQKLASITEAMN
Variant | ABA EC50
C72G | 12.7 µM
I172F | 7.43 µM
Y115F | 7.62 µM
D65Y | 11.3 µM
Q10M | 1.7 µM
K168W | 1.9 µM
H34R | 2.73 µM
V118S | 81.1 µM
T120A | 474 µM
L29V | 2.4 µM
W41Y | 107 µM
Q7S | 1.81 µM
H122L | 171 µM
T1A | 1.47 µM
R88S | 3.35 µM
F5R | 2.82 µM
C72F | 19.7 µM
T173M | 10.9 µM
V43F | 6.73 µM

Some of these lines once more (study 6):
Variant | ABA EC50
Q10M | 1.7 µM
K168W | 1.9 µM
H34R | 2.73 µM
V118S | 81.1 µM
T120A | 474 µM
L29V | 2.4 µM
W41Y | 107 µM
Q7S | 1.81 µM
H122L | 171 µM
T1A | 1.47 µM
R88S | 3.35 µM
F5R | 2.82 µM
C72F | 19.7 µM
T173M | 10.9 µM
V43F | 6.73 µM
